Assay results of several laboratories.
Each numbered part is a random draw from the data of one study; scales do not carry over between parts. Substitutions count along the parent as printed.
UniProt P11802, sequence (whole entry, looked up): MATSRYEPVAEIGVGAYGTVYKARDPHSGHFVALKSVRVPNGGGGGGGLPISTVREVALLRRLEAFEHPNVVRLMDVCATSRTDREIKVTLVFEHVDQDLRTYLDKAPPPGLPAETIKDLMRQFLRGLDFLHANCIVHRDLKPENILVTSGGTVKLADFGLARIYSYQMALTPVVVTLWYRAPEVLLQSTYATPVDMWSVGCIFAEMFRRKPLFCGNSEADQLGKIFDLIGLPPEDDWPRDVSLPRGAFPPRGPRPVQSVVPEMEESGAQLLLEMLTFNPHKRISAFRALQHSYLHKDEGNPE
UniProt P51451, sequence (whole entry, looked up): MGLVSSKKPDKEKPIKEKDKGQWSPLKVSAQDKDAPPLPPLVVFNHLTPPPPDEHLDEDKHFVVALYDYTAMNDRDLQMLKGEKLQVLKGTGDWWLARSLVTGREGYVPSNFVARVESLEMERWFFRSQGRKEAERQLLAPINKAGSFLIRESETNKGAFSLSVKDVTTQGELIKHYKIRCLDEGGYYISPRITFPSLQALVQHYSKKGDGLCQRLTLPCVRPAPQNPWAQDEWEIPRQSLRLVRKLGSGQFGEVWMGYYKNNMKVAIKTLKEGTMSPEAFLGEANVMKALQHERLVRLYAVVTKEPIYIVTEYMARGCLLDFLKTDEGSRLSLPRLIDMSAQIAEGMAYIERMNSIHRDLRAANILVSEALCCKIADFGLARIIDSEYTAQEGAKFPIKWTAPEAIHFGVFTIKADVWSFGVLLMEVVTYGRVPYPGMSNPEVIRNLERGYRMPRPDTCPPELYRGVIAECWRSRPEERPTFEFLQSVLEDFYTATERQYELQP
UniProt O43781, sequence (whole entry, looked up): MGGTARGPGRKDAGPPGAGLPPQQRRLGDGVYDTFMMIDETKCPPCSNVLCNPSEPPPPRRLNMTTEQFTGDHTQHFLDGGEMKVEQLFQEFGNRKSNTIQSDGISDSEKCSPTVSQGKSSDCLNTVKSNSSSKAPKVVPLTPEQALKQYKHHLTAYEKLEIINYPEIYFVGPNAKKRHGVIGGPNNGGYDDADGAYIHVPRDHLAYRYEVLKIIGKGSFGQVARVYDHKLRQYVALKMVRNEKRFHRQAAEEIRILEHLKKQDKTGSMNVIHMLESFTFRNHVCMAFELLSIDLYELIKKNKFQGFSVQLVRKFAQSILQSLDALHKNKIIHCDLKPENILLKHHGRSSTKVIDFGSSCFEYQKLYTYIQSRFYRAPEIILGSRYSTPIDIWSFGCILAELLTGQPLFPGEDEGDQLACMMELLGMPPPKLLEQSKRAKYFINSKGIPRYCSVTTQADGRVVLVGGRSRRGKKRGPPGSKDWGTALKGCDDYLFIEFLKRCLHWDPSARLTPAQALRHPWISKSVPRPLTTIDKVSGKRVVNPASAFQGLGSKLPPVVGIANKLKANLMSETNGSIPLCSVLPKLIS
UniProt O96013, sequence (whole entry, looked up): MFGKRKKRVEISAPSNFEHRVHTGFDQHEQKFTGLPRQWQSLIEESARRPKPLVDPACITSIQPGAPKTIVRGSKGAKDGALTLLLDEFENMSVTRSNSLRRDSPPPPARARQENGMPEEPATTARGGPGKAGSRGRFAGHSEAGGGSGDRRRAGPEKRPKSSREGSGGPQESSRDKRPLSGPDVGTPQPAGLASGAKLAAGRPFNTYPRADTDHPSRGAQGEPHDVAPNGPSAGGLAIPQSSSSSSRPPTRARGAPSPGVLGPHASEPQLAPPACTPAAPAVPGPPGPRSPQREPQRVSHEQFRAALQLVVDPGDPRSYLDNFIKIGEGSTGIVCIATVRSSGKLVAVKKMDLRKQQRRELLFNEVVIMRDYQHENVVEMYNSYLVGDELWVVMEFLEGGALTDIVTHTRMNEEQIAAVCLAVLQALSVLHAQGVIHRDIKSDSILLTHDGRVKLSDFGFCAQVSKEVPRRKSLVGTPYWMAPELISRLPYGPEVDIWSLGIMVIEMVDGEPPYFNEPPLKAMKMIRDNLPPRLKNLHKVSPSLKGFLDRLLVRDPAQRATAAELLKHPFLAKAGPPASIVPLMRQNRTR
UniProt Q00534, sequence (whole entry, looked up): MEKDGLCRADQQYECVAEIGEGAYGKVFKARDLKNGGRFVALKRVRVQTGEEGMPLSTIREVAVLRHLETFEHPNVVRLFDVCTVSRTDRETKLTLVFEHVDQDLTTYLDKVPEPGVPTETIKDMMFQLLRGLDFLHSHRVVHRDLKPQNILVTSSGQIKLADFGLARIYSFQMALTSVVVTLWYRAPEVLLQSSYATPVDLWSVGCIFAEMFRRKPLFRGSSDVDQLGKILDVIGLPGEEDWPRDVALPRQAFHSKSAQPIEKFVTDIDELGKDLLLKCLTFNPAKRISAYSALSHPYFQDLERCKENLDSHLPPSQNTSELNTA
UniProt Q02779, sequence (whole entry, looked up): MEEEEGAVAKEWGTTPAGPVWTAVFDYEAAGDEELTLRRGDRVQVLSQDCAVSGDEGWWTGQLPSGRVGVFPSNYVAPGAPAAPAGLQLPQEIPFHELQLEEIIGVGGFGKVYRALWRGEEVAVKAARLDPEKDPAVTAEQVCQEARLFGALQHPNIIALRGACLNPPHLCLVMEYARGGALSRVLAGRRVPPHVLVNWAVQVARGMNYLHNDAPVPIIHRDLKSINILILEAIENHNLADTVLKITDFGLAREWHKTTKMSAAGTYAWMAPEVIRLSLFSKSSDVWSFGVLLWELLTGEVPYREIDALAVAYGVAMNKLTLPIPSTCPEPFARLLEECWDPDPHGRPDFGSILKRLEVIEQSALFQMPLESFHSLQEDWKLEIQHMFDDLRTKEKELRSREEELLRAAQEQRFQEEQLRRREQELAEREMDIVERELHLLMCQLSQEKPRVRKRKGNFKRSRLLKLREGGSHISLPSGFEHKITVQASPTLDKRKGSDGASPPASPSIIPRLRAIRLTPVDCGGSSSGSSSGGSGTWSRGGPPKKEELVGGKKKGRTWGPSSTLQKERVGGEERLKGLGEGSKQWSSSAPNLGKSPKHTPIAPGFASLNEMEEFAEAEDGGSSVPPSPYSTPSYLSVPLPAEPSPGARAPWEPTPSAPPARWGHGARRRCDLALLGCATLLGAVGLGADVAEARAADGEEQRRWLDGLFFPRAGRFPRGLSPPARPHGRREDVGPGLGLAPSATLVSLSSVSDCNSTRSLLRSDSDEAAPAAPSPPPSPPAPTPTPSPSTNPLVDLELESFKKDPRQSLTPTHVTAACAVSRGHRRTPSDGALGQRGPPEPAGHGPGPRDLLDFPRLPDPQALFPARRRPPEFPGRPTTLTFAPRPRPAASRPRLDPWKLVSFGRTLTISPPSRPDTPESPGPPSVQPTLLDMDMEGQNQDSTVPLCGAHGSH
UniProt O15530, sequence (whole entry, looked up): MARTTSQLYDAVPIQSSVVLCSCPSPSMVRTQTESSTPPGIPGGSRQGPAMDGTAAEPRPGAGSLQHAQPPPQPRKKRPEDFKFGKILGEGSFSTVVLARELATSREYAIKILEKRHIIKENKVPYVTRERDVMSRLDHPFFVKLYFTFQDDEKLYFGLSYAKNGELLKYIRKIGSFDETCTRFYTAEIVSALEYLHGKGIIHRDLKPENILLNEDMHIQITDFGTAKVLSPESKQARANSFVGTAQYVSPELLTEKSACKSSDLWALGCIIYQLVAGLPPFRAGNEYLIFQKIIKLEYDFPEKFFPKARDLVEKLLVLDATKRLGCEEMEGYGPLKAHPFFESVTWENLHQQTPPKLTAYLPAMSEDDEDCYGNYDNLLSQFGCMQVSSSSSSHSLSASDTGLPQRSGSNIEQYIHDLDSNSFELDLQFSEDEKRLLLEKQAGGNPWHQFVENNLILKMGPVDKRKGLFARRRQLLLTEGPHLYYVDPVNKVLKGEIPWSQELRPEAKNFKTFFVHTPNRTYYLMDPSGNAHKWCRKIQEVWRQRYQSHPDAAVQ
UniProt P54760, sequence (whole entry, looked up): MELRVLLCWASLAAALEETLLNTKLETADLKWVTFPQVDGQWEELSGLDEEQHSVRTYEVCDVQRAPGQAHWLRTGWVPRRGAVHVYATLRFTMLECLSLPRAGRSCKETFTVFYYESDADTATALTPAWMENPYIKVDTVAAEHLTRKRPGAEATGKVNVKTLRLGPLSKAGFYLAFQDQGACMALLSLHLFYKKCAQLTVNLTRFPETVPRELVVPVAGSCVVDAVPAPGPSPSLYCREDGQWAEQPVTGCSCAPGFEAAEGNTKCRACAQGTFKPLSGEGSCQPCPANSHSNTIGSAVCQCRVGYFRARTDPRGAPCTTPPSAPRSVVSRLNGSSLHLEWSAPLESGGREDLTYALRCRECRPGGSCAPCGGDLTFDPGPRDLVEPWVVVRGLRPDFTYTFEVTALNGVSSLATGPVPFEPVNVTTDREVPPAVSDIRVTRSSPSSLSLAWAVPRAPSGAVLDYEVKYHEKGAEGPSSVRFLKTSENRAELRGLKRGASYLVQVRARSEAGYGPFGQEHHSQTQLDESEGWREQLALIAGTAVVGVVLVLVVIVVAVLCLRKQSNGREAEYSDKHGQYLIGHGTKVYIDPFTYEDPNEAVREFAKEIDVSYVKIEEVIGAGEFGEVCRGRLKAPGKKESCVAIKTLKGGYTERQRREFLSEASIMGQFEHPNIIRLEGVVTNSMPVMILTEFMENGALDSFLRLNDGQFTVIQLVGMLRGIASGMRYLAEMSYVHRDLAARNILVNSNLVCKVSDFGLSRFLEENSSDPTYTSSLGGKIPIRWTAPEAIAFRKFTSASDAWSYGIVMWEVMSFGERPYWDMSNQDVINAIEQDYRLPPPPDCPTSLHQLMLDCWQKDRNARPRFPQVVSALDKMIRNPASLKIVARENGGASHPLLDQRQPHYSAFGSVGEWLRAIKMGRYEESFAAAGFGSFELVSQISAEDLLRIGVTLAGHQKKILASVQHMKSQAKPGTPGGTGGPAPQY

Sample 1 — effect on: cell-free assay; technique: competition with immobilised ligand; concentration: 1 µM
SMILES: Cc1noc([C@H]2C[C@@H](c3ccc(C(F)(F)F)cc3)CN(C(=O)N3CCS(=O)(=O)C3)C2)n1
It gave 78% for remaining binding (SIK3 (Homo sapiens, UniProt Q9Y2K2)).
It gave 100% for remaining binding (NIM1K (Homo sapiens, UniProt Q8IY84)).
For TLK1 (Homo sapiens, UniProt Q9UKI8): remaining binding read 100%.
The remaining binding was 100% (NEK1 (Homo sapiens, UniProt Q96PY6)).
It gave 100% for remaining binding (CDK3 (Homo sapiens, UniProt Q00526)).
The remaining binding was 100% (CDK8 (Homo sapiens, UniProt P49336)).
MAP3K10 (Homo sapiens, UniProt Q02779) — remaining binding: 96%.
It gave 84% for remaining binding (FGFR3 (Homo sapiens, UniProt P22607, G697C)).
The remaining binding was 100% (PAK4 (Homo sapiens, UniProt O96013)).
For Cyclin-dependent kinase 4, with cyclin D1 (CDK4, Homo sapiens, UniProt P11802): remaining binding read 100%.

Sample 2 — technique: EMSA with sequencing; form: double-stranded DNA, one strand shown; sample: in vitro; concentration: 10 and 20 nM; baseline: negative control set to 0; direction: higher = stronger binding
Target: Hepatocyte nuclear factor 3-alpha (Foxa1, Mus musculus, UniProt P35582, residues 1-468, full length assumed)
Notes: whole designed probe, mean of two concentrations, ends assumed
Residues (chain): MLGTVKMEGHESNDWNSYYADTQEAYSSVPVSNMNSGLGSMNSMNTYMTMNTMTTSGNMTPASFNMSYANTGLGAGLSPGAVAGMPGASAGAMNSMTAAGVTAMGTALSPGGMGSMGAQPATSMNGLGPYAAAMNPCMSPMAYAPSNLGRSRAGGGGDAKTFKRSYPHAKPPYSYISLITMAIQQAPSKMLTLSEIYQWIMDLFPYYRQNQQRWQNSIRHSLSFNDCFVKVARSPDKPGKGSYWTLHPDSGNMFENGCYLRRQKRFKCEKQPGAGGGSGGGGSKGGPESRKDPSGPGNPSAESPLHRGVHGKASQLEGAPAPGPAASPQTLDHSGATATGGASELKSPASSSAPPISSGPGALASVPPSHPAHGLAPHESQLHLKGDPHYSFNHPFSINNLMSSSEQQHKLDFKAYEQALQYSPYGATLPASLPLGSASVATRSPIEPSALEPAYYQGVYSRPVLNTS
Under “normalised bound fraction”, `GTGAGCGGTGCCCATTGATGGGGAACGTTGCCATAGCTCTGCTGAATGATCATTTGTTGGATTCCATGAATCTCAAAAAAATGAAAGGATCTCTCTTTAGGTGTGTCTGGGGCTATCAAAGTAATCTAGTCAGATGAATTATTGATAGGCTTTGGATCAATGAAATGCCACTGGAATGACAAATGATAAGCACAGTAAAACTGTCACAATCCTTATTCCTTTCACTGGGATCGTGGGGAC` is recorded as -0.064 ratio.
For `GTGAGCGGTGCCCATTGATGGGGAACCCTCTCCATTCTGATTTCCTTCAGACAAAATTATTTCTATCTTCGACATCAACAACTCTCCTGAAAAACATATAGTCAGTTCATCCAATTTCAAAATTACTCTTTACTCTTGAGCACAATTTCTTGCCTACCAATTTATGAGCTCTTTCCAGTGAAAGTCCATATCTTCCATTCTTCTGTTACCCCTTTGGGGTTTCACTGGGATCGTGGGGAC`, “normalised bound fraction” read -0.068 ratio.
`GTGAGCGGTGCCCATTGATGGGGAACCTGCGGATCACCCCAAGGAAAATCCAGACTGATTCGATCAGTCCTAGCTGGAAGCAGCACAGGAATAGCAGGAAGCCTATGACTCATTTTAAGCAAACATCCGGTAACCCGACTGGTATCTGGTTCAAATGGGGAAACCTGAAGCACCTATGACAGGCCAGGCCCAGAGAAGATACTGCCCAGATGGATACAGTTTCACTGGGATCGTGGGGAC` — result for “normalised bound fraction”: 0.129 ratio.
`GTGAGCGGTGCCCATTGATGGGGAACGTGTGCTAGCCTGTGAGTTTTTCTCTCCAACTAGCCTGGGTACTCAGGAAAGTGAGATCAACTTCTGGGTGGCCTTGGGTGTAGCTGACCTGTGCAATTTGGGGAGACAGTTGACATACAGATGAAAGGGGAGATGGGAAGCCATACAGAGGAAGGAGAAGATCAGGAACCAGAGATAAGATAATTCTGTAAATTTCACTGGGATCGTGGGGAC` — result for “normalised bound fraction”: 0.0181 ratio.
`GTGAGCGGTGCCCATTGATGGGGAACTTAAAGAGTCAATCAAAGTTTGCTTTAAGAGAAAAGTAAATACACCCAACTTTCCATACAATGCCGGACCCCGAGTTCACTTCCTGGTTTCACTGTTGACTCAGGTTGCAATCCTAGATAAGTAACTACACATGCTCACTGCCCTGGGCCCAAAGCTGGGGCGAGAGCCTGGAATCAGCGCACCCCCAAGAATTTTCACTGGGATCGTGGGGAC`: “normalised bound fraction” 0.448 ratio.

Sample 3 — SMILES: CC(=O)c1ccc(N2CCOCC2)cc1O; effect on: enzyme activity; mode: inhibitor; concentration: 0.5 µM; baseline: control
The remaining activity was 101% (EPHA4 (Homo sapiens, UniProt P54764)).
EPHB4 (Homo sapiens, UniProt P54760) — remaining activity: 97.6%.
The remaining activity was 105% (RPS6KA5 (Homo sapiens, UniProt O75582)).
It gave 105% for remaining activity (MAPKAPK3 (Homo sapiens, UniProt Q16644)).
For CAMK2B (Homo sapiens, UniProt Q13554): remaining activity read 105%.
It gave 96.4% for remaining activity (Cyclin-dependent kinase 4, with cyclin D3 (CDK4, Homo sapiens, UniProt P11802)).
RPS6KA6 (Homo sapiens, UniProt Q9UK32) — remaining activity: 95.1%.
PDPK1 (Homo sapiens, UniProt O15530) — remaining activity: 111%.
For STK17A (Homo sapiens, UniProt Q9UEE5): remaining activity read 95.9%.
The remaining activity was 97.4% (Cyclin-dependent kinase 6, with cyclin D3 (CDK6, Homo sapiens, UniProt Q00534)).
The remaining activity was 106% (HIPK2 (Homo sapiens, UniProt Q9H2X6)).
EPHB1 (Homo sapiens, UniProt P54762) — remaining activity: 103%.
It gave 101% for remaining activity (HIPK4 (Homo sapiens, UniProt Q8NE63)).
The remaining activity was 96.9% (MAP4K4 (Homo sapiens, UniProt O95819)).
DYRK3 (Homo sapiens, UniProt O43781) — remaining activity: 93.9%.
The remaining activity was 102% (BLK (Homo sapiens, UniProt P51451)).

Sample 4 — target: CEBPE, bZIP domain (human); technique: DHFR protein complementation; sample: yeast; baseline: wild-type JUN-FOS pair; direction: higher = stronger binding
Notes: single substitutions, most at no-binding floor
Parent: JUN, bZIP domain (human); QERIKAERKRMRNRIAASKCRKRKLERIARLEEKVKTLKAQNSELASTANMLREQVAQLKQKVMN; partner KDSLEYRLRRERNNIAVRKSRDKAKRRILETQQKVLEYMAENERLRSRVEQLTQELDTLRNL
The binding fitness of `E44N` is reported as -1.29 natural log.
The binding fitness of `V56Y` is reported as -1.12 natural log.
For `E33V`, the binding fitness was -1.38 natural log.
`E54C` gave a binding fitness of -1.24 natural log.
`Q55D` gave a binding fitness of -1.5 natural log.
`T48L` gave a binding fitness of -1.12 natural log.
For `R53P`, the binding fitness was -1.49 natural log.
With `E54A` the binding fitness was -1.25 natural log.

For quick reference, copied from above (sample 4):
`E54C` gave a binding fitness of -1.24 natural log.
With `E54A` the binding fitness was -1.25 natural log.
For `R53P`, the binding fitness was -1.49 natural log.
For `E33V`, the binding fitness was -1.38 natural log.
`Q55D` gave a binding fitness of -1.5 natural log.
